Published values gathered from unrelated publications.
Several values in a cell are separate wells, animals, samples, runs or records.
Method: steady-state kinetics
B1: enzyme A178R/D177A/M179H/P184R (Levilactobacillus brevis, UniProt Q03Q85); chain MKVTVVGCTHAGTFAIKQILAEHPDAEVTVYERNDVISFLSCGIALYLGGKVADPQGLFYSSPEELQKLGANVQMNHNVLAIDPDQKTVTVEDLTNHAQTTESYDKLVMTSGSWPIVPKIPGIDSDRVKLCKNWAHAQALIEDAKEAKRITVIGAGYIGAELAEAYSTTGHDVTLIARHARVMRKYFDADFTDVIEQDYRDHGVQLALGETVESFTDSATGLTIKTDKNSYETDLAILCIGFRPNTDLLKGKVDMAPNGAIITDDYMRSSNPDIFAAGDSAAVHYNPTHQNAYIPLATNAVRQGILVGKNLVKPTVKYMGTQSSSGLALYDRTIVSTGLTLAAAKQQGLNAEQVIVEDNYRPEFMPSTEPVLMSLVFDPDTHRILGGALMSKYDVSQSANTLSVCIQNENTIDDLAMVDMLFQPNFDRPFNYLNILAQAAQAKVAQSVNA
B2: enzyme (Bacillus pumilus, UniProt A8FFI9); chain EARSIAWSVDEFFKNREGTFVIQEVKEKSPWVYNKKRAKERFAPQSTFKVANALIGLQTGAVRDEYDIKYWDGVKREIDNWNRDHTLGSGMRDSVVWYYQAMARDIGEERMNHWVKAIHYGNKDISGGIDQFWLSSTLRISPIEQVRFLKQLYEETLPFDLKNMRTVKRMMVQEEEKHATLYGKTGSGSDIGWYVGFIKHEHKTYILATNIKGTGIEAKDITYRILKKYHLMEASV
B3: CYP26A1 (Homo sapiens, UniProt O43174); chain MGLPALLASALCTFVLPLLLFLAAIKLWDLYCVSGRDRSCALPLPPGTMGFPFFGETLQMVLQRRKFLQMKRRKYGFIYKTHLFGRPTVRVMGADNVRRILLGEHRLVSVHWPASVRTILGSGCLSNLHDSSHKQRKKVIMRAFSREALECYVPVITEEVGSSLEQWLSCGERGLLVYPEVKRLMFRIAMRILLGCEPQLAGDGDSEQQLVEAFEEMTRNLFSLPIDVPFSGLYRGMKARNLIHARIEQNIRAKICGLRASEAGQGCKDALQLLIEHSWERGERLDMQALKQSSTELLFGGHETTASAATSLITYLGLYPHVLQKVREELKSKGLLCKSNQDNKLDMEILEQLKYIGCVIKETLRLNPPVPGGFRVALKTFELNGYQIPKGWNVIYSICDTHDVAEIFTNKEEFNPDRFMLPHPEDASRFSFIPFGGGLRSCVGKEFAKILLKIFTVELARHCDWQLLNGPPTMKTSPTVYPVDNLPARFTHFHGEI
B4: PhnY E385A (Sinorhizobium meliloti, UniProt Q92UV7); chain MTNAEVTIAVRHEPMRIAGRLVDTDDRVEVRYPWNDTVVGTVPAGRAEHAREAFAIAAAYQPKLTRYERQKILLATAEALAARKEEISDVITLELGISKADSLYEVGRAFDVFTLAGQMCIRDDGEIFSCDLTPHGKARKIFTMREPLTAISAITPFNHPLNMVAHKVAPAIATNNCVVVKPTELTPMTALLLADILYEAGLPPEMLSVVTGWPADIGMEMITNPHVDLVTFTGSVPVGKLIAANAHYKRQVLELGGNDPLIILNDLSDDDLARAADLAVAGATKNSGQRCTAVKRILCQESVADRFVPLVLERAKRLRFGDPMDRSTDLGTVIHEKAAALFEERVMRAAEEGADILYHPGRSGALLPPIVVDRVPHQSDLVLEATFGPIIPIVRVPDDDDATITLSNSTAFGLSSGVCTNDYRRMQKYIAGLKVGTVNIWEVPGYRIEMSPFGGIKDSGNGYKEGVIEAMKSFTNVKTFSLPWP
B5: protein (Stereum hirsutum, UniProt P9WEW0); chain MTVVDSPQRFYIPNCLEYWPWPRHINPHYQEVKKASAAWAESFGAFNPKAQHAYNACDFNLLASLAYPLESEERLRTGCDLMNMFFVFDEYSDVSSPKDVIQQAAIIMDALRNPYAPRPDDEWVGGEVTRQFWKRAIKTATAGAQRRFIDAFESYTQSVVQQAKDRHHGFIRDVDSYLEMRRETIGAKPSFVVLQMDMTLPDEVLAHPVIQQLSALSTDMICLGNDICSYNVEQARGDDLHNIITIAMNQFDIDIAGAMDWVVKYHAKLERKFLYLYNNGLPSWGKELDPQVERYVCGLGNWVRASDQWGFESERYFGKKGKEIFKRRWVNLMQPERAQDIGPTLVDGTRL
B6: FMO3 D132H (Homo sapiens, UniProt P31513); chain GKKVAIIGAGVSGLASIRSCLEEGLEPTCFEKSNDIGGLWKFSDHAEEGRASIYKSVFSNSSKEMMCFPDFPFPDDFPNFMHNSKIQEYIIAFAKEKNLLKYIQFKTFVSSVNKHPDFATTGQWDVTTERHGKKESAVFDAVMVCSGHHVYPNLPKESFPGLNHFKGKCFHSRDYKEPGVFNGKRVLVVGLGNSGCDIATELSRTAEQVMISSRSGSWVMSRVWDNGYPWDMLLVTRFGTFLKNNLPTAISDWLYVKQMNARFKHENYGLMPLNGVLRKEPVFNDELPASILCGIVSVKPNVKEFTETSAIFEDGTIFEGIDCVIFATGYSFAYPFLDESIIKSRNNEIILFKGVFPPLLEKSTIAVIGFVQSLGAAIPTVDLQSRWAAQVIKGTCTLPSMEDMMNDINEKMEKKRKWFGKSETIQTDYIVYMDELSSFIGAKPNIPWLFLTDPKLAMEVYFGPCSPYQFRLVGPGQWPGARNAILTQWDRSLKPMQTRVVGRLQKPCFFFHWLKLFAIPILLIAVFLVLT

Molecule | substrate | test system | setting | Km
enzyme (Elizabethkingia miricola, UniProt Q47898) | CC(=O)N[C@@H]1[C@@H](O)[C@H](O)[C@@H](CO)O[C@H]1NC(=O)C[C@H](N)C(=O)O | – | pH 7.5, 37 °C | 90 µM
protein (Streptomyces coelicolor, UniProt Q9K464) | CC(C)C(=O)CC(=O)SCCNC(=O)CCNC(=O)[C@H](O)C(C)(C)COP(=O)(O)OP(=O)(O)OC[C@H]1O[C@@H](n2cnc3c(N)ncnc32)[C@H](O)[C@@H]1OP(=O)(O)O | – | pH 7.8, 30 °C, NaCl 150 mM, together with: methylmalonyl-CoA 1.0 mM | 12.1 µM
dxs (Escherichia coli, UniProt P77488) | O=C(O)C(=O)CO | – | pH 6.8, 37 °C | 50 µM
B1 (enzyme A178R/D177A/M179H/P184R) | NC(=O)C1=CN([C@@H]2O[C@H](COP(=O)(O)OP(=O)(O)OC[C@H]3O[C@@H](n4cnc5c(N)ncnc54)[C@H](O)[C@@H]3O)[C@@H](O)[C@H]2O)C=CC1 | – | pH 7.5, 37 °C | 329 µM
CYP2C9 (Homo sapiens, UniProt P11712) | Cc1ccc(Nc2c(F)cccc2Cl)c(CC(=O)O)c1 | – | pH 7.4, Hill model, CYP2C9, metabolite, not purified | 15.4 µM
B2 (enzyme) | CC(=O)OCC1=C(C(=O)O)N2C(=O)[C@@H](NC(=O)Cc3cccs3)[C@H]2SC1 | – | pH 7 | 60 µM
MauG (Paracoccus denitrificans, UniProt Q51658) | O=C1O[C@H]([C@@H](O)CO)C(O)=C1O | – | pH 7.5, 25 °C, together with: H2O2 100 µM | 2.2 µM
MMP9 (Homo sapiens, UniProt P14780) | CC(=O)N[C@@H](CCC(N)=O)C(=O)N1CCC[C@H]1C(=O)N[C@@H](CCC(N)=O)C(=O)NCC(=O)N[C@@H](CC(C)C)C(=O)N[C@@H](C)C(=O)N[C@@H](CCCCN)C(N)=O | – | – | 1220 µM
B3 (CYP26A1) | CC1=C(/C=C/C(C)=C/C=C/C(C)=C/C(=O)O)C(C)(C)CCC1 | – | 37 °C, not purified | 0.0501 µM and 0.0489 µM
B4 (PhnY E385A) | O=CCP(=O)(O)O | – | pH 7.5, 30 °C, substrate inhibition, together with: NAD+ | 19 µM
B5 (protein) | CC(C)=CCC/C(C)=C/CC/C(C)=C/CO[P@@](=O)(O)OP(=O)(O)O | – | pH 8, NaCl 200 mM, together with: FPP 1–100 µM | 5.02 µM
B6 (FMO3 D132H) | CN1CCC[C@H]1c1cccnc1 | HEK293 microsomes | 37 °C, not purified, together with: NADPH regenerating system | 2100 µM

A few entries again:
Molecule | substrate | test system | setting | Km
B3 (CYP26A1) | CC1=C(/C=C/C(C)=C/C=C/C(C)=C/C(=O)O)C(C)(C)CCC1 | – | 37 °C, not purified | 0.0501 µM and 0.0489 µM
B4 (PhnY E385A) | O=CCP(=O)(O)O | – | pH 7.5, 30 °C, substrate inhibition, together with: NAD+ | 19 µM
